Experimental data pooled from the literature.
Each line is one published result; not all experiments were run side by side. Several values in a cell are separate wells, animals, samples, runs or records. ± marks the error that the study gave.
SYK with FCER1G: Tyrosine-protein kinase SYK, with FCER1G (SYK, Homo sapiens, UniProt P43405)
APP amyloid-beta peptide: Amyloid-beta precursor protein, amyloid-beta peptide (APP, Homo sapiens, UniProt P05067)
ESR1: Estrogen receptor (ESR1, Homo sapiens, UniProt P03372)
Tubulin alpha/beta heterodimer: Tubulin alpha/beta heterodimer (Leishmania infantum, UniProt A0A381MCS3+A4HTR0)
Grm2: Metabotropic glutamate receptor 2 (Grm2, Rattus norvegicus, UniProt P31421)
CHEK1: Serine/threonine-protein kinase Chk1 (CHEK1, Homo sapiens, UniProt O14757)

Sequences of proteins named here, by UniProt entry; tags and fusion partners are left off. Residues count along the entry.
UniProt P05067, whole entry, looked up: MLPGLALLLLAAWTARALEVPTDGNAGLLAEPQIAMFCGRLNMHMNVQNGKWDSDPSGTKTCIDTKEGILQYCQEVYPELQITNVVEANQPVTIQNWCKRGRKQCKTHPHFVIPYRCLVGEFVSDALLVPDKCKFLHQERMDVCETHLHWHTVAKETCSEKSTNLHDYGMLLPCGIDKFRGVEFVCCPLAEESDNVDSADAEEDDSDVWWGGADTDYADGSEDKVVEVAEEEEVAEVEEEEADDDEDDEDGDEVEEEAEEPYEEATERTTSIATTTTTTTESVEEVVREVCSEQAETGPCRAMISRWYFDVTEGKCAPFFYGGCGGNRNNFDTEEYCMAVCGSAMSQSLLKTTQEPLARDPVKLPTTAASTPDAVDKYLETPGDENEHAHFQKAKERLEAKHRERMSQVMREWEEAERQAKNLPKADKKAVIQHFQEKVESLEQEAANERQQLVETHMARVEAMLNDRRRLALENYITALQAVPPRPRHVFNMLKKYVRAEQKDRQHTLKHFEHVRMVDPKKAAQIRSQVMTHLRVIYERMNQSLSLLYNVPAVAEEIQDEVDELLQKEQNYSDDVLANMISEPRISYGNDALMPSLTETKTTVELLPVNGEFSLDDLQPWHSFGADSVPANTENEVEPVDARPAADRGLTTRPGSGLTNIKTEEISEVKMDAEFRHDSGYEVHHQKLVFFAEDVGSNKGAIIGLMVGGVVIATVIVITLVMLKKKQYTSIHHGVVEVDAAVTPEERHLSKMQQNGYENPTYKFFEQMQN
UniProt P05067, 672-713 limits assumed: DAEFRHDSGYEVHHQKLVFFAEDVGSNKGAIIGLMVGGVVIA
UniProt P03372, whole entry: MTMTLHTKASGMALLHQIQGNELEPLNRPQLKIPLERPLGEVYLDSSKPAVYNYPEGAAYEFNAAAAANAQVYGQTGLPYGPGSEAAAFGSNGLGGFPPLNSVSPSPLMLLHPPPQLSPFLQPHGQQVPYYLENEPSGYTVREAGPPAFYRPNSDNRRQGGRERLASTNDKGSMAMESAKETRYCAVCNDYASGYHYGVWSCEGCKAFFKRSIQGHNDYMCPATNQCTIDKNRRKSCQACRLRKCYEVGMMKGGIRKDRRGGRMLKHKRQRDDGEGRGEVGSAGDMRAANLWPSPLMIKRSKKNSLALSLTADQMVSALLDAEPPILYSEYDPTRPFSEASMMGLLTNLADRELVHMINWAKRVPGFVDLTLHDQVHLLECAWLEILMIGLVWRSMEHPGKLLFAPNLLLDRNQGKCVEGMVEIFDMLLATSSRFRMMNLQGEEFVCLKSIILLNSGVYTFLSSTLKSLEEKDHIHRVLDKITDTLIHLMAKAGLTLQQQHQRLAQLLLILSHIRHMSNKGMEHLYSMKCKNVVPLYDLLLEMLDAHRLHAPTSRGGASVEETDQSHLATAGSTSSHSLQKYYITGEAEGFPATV
UniProt A4HTR0, 1-443: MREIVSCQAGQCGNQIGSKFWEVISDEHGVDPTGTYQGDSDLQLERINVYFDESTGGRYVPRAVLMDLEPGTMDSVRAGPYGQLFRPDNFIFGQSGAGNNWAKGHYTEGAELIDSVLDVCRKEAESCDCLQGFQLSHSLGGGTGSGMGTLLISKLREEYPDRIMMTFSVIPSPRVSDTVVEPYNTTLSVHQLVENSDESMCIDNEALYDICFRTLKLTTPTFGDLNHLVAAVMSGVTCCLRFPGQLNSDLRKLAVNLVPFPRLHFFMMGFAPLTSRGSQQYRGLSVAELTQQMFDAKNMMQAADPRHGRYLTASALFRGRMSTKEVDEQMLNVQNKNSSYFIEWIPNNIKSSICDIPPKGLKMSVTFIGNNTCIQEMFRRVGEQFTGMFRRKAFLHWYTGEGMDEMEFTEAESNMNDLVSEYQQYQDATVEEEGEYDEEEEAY
UniProt P0DMV8, whole entry: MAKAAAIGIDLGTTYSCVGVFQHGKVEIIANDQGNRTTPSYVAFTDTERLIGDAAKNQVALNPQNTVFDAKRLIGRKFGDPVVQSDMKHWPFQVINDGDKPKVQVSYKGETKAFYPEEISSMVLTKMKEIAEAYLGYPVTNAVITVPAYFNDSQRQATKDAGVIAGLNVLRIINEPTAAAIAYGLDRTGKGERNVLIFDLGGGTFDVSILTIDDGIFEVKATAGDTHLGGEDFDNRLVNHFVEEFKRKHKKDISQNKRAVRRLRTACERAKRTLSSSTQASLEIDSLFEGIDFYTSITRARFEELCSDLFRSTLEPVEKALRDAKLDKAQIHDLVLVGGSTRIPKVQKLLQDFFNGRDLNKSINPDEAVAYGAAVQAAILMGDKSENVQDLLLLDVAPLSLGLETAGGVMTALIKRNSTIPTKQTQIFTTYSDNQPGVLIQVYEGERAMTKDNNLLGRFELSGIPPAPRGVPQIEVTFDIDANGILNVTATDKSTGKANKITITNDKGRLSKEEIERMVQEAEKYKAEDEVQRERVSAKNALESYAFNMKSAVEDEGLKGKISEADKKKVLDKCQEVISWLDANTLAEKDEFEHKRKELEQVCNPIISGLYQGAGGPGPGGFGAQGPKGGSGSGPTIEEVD
UniProt Q07440, whole entry P104K/C113S, looked up: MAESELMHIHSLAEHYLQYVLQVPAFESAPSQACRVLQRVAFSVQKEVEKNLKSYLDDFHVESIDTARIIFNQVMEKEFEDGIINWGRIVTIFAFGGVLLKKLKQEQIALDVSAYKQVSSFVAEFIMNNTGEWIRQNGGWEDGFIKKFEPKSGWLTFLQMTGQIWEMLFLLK
UniProt O75365, whole entry: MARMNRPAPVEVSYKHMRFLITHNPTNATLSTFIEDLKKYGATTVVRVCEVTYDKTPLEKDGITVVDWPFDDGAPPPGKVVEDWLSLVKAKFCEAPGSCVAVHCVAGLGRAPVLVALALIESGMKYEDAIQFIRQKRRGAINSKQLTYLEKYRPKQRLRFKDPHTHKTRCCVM
UniProt Q9NR97, 27-1041 limits assumed: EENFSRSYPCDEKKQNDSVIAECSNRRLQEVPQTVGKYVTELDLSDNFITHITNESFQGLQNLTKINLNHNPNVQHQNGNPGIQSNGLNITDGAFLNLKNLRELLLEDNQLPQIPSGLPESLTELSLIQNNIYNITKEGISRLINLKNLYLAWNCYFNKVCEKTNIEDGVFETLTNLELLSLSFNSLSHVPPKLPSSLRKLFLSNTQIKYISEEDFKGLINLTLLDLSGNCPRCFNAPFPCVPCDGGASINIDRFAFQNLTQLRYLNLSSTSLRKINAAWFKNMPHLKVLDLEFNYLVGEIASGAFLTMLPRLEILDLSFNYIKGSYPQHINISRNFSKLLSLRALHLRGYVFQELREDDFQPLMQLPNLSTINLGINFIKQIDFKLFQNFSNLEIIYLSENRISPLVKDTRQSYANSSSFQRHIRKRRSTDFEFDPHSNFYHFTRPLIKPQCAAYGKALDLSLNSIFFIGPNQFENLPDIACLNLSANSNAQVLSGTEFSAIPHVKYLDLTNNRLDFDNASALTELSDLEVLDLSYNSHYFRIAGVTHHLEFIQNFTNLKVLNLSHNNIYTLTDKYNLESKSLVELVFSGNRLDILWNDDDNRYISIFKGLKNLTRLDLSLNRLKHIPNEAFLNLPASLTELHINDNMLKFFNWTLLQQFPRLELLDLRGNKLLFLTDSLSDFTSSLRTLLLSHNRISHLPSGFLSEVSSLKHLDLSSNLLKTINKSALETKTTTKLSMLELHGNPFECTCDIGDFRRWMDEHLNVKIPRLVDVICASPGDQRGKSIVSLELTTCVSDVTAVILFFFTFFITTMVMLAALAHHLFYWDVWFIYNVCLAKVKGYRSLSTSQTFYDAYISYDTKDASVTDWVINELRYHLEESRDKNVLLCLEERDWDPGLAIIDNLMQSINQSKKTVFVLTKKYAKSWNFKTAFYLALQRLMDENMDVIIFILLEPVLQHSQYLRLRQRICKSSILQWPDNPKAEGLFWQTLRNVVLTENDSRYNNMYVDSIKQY
UniProt P30530, 26-894 limits assumed: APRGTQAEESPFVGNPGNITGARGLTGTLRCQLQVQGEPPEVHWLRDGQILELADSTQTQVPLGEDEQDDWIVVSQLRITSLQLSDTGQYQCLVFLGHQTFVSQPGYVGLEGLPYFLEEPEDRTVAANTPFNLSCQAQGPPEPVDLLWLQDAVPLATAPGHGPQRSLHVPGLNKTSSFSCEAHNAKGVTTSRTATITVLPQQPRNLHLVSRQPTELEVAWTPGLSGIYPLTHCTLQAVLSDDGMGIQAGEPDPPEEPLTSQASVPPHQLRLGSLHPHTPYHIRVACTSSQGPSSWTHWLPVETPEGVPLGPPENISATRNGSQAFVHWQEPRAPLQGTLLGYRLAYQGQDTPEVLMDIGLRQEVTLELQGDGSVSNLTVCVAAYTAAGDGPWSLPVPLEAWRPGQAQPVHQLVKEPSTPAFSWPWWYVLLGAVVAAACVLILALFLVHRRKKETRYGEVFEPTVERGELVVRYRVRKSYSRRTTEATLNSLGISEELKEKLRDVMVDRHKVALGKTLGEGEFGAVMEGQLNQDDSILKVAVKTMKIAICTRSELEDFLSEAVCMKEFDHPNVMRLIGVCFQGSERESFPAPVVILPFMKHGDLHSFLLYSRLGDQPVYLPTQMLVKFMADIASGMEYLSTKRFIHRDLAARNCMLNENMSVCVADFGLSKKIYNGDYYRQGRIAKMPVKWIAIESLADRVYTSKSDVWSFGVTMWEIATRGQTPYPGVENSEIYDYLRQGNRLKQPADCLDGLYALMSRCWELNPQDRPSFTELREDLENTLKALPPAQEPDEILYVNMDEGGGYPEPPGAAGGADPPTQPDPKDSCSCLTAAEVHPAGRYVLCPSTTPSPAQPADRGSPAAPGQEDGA
UniProt P31749, whole entry: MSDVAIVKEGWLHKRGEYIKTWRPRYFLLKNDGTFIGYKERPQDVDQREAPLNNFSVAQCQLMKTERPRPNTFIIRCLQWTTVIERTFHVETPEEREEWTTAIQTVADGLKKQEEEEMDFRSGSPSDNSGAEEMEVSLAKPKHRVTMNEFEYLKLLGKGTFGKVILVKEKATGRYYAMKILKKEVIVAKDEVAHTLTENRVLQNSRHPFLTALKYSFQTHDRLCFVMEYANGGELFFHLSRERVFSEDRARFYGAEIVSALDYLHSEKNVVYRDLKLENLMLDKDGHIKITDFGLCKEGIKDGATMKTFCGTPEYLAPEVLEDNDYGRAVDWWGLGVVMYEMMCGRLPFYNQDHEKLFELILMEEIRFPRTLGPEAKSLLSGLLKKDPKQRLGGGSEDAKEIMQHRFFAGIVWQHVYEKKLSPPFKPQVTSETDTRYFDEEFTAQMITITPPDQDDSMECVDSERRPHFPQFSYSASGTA
UniProt P68400, whole entry: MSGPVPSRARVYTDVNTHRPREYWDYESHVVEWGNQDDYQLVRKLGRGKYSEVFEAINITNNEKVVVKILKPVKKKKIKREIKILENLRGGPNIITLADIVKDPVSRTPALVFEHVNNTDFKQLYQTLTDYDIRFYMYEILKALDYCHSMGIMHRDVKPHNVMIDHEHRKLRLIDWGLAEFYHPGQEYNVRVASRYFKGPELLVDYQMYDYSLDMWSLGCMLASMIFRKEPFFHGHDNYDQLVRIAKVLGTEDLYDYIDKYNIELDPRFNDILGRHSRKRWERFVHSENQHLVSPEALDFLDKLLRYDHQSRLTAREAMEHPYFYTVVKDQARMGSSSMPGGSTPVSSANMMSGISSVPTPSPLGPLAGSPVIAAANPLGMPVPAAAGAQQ
UniProt Q92630, whole entry: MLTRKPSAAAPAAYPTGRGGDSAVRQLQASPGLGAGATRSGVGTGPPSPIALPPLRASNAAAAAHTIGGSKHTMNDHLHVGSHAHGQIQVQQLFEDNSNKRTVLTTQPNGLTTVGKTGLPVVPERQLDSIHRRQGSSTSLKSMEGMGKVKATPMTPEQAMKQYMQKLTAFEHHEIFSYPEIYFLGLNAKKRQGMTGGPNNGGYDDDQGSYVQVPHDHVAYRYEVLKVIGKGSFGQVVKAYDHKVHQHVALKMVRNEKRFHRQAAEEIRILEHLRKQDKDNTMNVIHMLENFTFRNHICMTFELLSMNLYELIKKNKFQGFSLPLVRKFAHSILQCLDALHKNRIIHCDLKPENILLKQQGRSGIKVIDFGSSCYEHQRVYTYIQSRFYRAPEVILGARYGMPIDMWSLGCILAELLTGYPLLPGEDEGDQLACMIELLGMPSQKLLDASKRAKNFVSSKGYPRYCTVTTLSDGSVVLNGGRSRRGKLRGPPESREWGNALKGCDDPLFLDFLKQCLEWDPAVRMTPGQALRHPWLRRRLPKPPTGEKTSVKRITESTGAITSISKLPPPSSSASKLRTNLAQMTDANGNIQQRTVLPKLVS
UniProt Q9BV23, whole entry: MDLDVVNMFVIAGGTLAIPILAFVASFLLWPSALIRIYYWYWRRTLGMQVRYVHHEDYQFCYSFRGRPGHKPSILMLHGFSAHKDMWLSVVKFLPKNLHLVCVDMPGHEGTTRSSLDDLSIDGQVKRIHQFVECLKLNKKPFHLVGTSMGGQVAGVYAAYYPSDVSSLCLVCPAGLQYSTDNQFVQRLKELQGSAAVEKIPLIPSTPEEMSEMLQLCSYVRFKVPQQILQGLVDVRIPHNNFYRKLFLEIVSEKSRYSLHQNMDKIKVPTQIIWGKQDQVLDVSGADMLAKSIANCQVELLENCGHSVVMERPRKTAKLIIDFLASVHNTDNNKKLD

Compound	target	test	test system	conditions	IC50
O=C(Nc1cccc(-c2nc3ccccc3s2)c1)c1ccc(N2CCOCC2)cc1	SYK with FCER1G	protein binding, inhibitor, TR-FRET	–	–	> 100000 nM
CC(C)c1nc(-c2cccc(Nc3ncnn4ccc(CN5CCC(N)CC5)c34)c2)no1	AP2-associated protein kinase 1 (AAK1, Homo sapiens, UniProt Q2M2I8)	–	–	–	21 nM
CC(=O)Nc1ccc(/C=C/c2c[nH]c3ccc(C#N)cc23)cc1	APP amyloid-beta peptide	Aβ42 oligomerisation, ELISA	–	–	4000 nM
CCn1c(=Cc2cccc[n+]2C)sc(=C2Sc3ccccc3N2C)c1=O	Heat shock 70 kDa protein 1A, with BAG1 (HSPA1A, Homo sapiens, UniProt P0DMV8)	Hsp70-Bag1 interaction, inhibitor, flow cytometry (FCPIA)	–	together with: labeled Bag1 50 nM	8400 ± 800 nM
C1=C(CCNCc2ccccc2)CCCC1	Phenylalanine--tRNA ligase, mitochondrial (Homo sapiens, UniProt O95363)	phenylalanine activation, inhibitor	–	human enzyme	> 300 µg/mL
CC(C)NC(=O)CSc1nc2ccc(NC(=O)CSc3cc(Cl)ccc3Cl)cc2s1	ESR1	reporter gene, antagonist	HEC-1 transfected ERα luciferase reporter	–	6100 nM
O=C(O)c1cc(C(=O)N2CCC[C@H]2C(=O)O)cc([C@H]2CCN[C@@H]2C(=O)O)c1	Glutamate receptor ionotropic, NMDA 2B, with GluN1 (Grin2b, Rattus norvegicus, UniProt Q00960)	ion current, antagonist, two-electrode voltage clamp	Xenopus oocytes	GluN1/GluN2B, together with: glycine 100 µM and glutamate 1 µM	2890 ± 100 nM
O=C(N/N=C/c1ccc(Sc2ncccn2)s1)c1cccc(F)c1	Protein phosphatase EYA2 (Homo sapiens, UniProt O00167)	tyrosine phosphatase activity, inhibitor	–	–	110 nM
COC(=O)[C@@H]1C(c2nc3ccccc3o2)=Cc2cc3c(cc2[C@H]1c1cc(OC)c(OC)c(OC)c1)OCO3	Tubulin alpha/beta heterodimer	tubulin polymerization, inhibitor	–	37 °C, together with: tubulin 1.2 mg/mL	1510 nM
O=C(O)c1cc(C(=O)N[C@@H](CS)C(=O)O)cc([C@H]2CCN[C@@H]2C(=O)O)c1	kainate receptor (rat)	binding, radioligand binding	rat cortical synaptosomes	together with: [3H]kainate	10000 to 50000 nM
N[C@@H](c1nc2cc(-c3ccncc3F)sc2c(=O)[nH]1)C1CC1	Cell division cycle 7-related protein kinase (CDC7, Homo sapiens, UniProt O00311)	enzyme activity, inhibitor	–	–	612 ± 42.8 nM
COc1ccc2[nH]cc(CCc3ccncc3)c2c1	APP amyloid-beta peptide	Aβ42 oligomerisation, ELISA	–	–	> 20000 nM
Cc1ncc(OCc2ccc3c(c2)c(=O)c(C(N)=O)cn3-c2ccc(F)cc2)cn1	Grm2	calcium mobilization, negative allosteric modulator	–	–	277 nM
COc1ccccc1N=Nc1c(O)ccc2cc(S(=O)(=O)O)ccc12	Bcl-2-related protein A1 (Mus musculus, UniProt Q07440, C113S/P104K)	binding, fluorescence polarization	–	together with: FITC-Noxa peptide	> 400000 nM
O=C(CCCn1c(=S)[nH]c2ccccc2c1=O)N1CCN(c2cccc(C(F)(F)F)c2)CC1	ESR1	reporter gene, coactivator binding inhibitor, luciferase reporter	HEC-1 cells transfected with ERα	partial inhibition, together with: estradiol 1 nM	35000 nM
COc1ccc(-c2nc(S(C)(=O)=O)nn2-c2ccc(OC)cc2)cc1	Prostaglandin G/H synthase 2 (PTGS2, Homo sapiens, UniProt P35354)	PGE2 production, inhibitor, enzyme immunoassay	human whole blood	–	> 1000 nM
CCOC(=O)c1nc2cc(Cl)c(Cl)cc2nc1N1CCN(C(N)=O)CC1	Phosphoglycerate kinase 1 (PGK1, Homo sapiens, UniProt P00558)	enzyme activity, inhibitor, GAPDH-coupled	–	together with: ATP 1.5 mM, 3-phosphoglycerate 2 mM	530 ± 70 nM
Cc1ccccc1C(NS(=O)(=O)c1cccs1)C(=O)Nc1ccc(Cl)cc1 (stereo not shown)	Uracil nucleotide/cysteinyl leukotriene receptor, long isoform (GPR17, Homo sapiens, UniProt Q13304)	calcium mobilization, antagonist	1321-N1	–	11200 ± 670 nM
O=C(O)c1ccc(Cl)cc1Nc1ccc2c(c1)Nc1ccccc1NC2=O	CHEK1	enzyme activity, inhibitor	–	together with: CDC25C substrate	263 nM
COc1ccc2[nH]cc(/C=C/c3cccc(O)c3)c2c1	APP amyloid-beta peptide	Aβ42 oligomerisation, ELISA	–	–	7000 nM
O=C(Nc1ccc(-c2nc3ccc(NC(=O)C4CCCC4)cc3s2)cc1)C1CCCC1	Moesin, with CD44 (Homo sapiens, UniProt P26038)	MSN-CD44 interaction, inhibitor, TR-FRET	–	together with: CD44	> 100000 nM
CC(=NNC(=N)N)c1ccc2[nH]c(C(=O)Nc3ccc4cc[nH]c4c3)cc2c1	CHEK1	kinase activity, inhibitor, IMAP fluorescence polarization	–	–	34000 nM
NC(=O)c1cn(-c2ccc(F)cc2)c2ccc(COc3ccc(Cl)nc3)cc2c1=O	Grm2	calcium mobilization, negative allosteric modulator	–	–	193 nM
O=C(Nc1ccc(-c2nc3ccccc3s2)cc1)C1CCCCC1	SYK with FCER1G	protein binding, inhibitor, TR-FRET	–	–	> 100000 nM
CCc1ccc(SCC(=O)Nc2ccc3nc(SCC(=O)NCC(C)C)sc3c2)cc1	ESR1	reporter gene, antagonist	HEC-1 transfected ERα luciferase reporter	–	> 50000 nM
O=Cc1c(O)c2c(c3c1CC(O)OC3=O)CCC2 (stereo not shown)	14 kDa phosphohistidine phosphatase (Homo sapiens, UniProt Q9NRX4, C69A/C71A/C73A)	–	–	C69A/C71A/C73A mutant	3000 ± 200 nM
Cc1nc(N)sc1-c1csc(Nc2ccc(N)cc2)n1	Protein-lysine 6-oxidase (Homo sapiens, UniProt P28300)	LOX activity, inhibitor	MDA-MB-231	–	> 10000 nM
CN1CC[C@H](c2c(O)cc(O)c3c(=O)cc(-c4cccnc4)oc23)[C@H](O)C1	Cyclin-dependent kinase 9, with cyclin T1 (CDK9, Homo sapiens, UniProt P50750)	inhibitor	–	with cyclin T1, GST-CTD substrate	5.5 nM

Compound	target	test	test system	conditions	IC50
CC(=O)O[C@@H]1c2coc3c2[C@@](C)(C2=C(C3=O)[C@@H]3CCC(=O)[C@@]3(C)CC2)[C@H]2O[C@@H]12	Transcription factor p65 (RELA, Homo sapiens, UniProt Q04206)	DNA binding, inhibitor, ELISA-type binding	HeLa nuclear extract	together with: TNF-α	< 10000 nM and 9120 nM
O=c1[nH]c(=S)[nH]c2sc(-c3ccccc3)cc12	Protein tyrosine phosphatase type IVA 3 (PTP4A3, Homo sapiens, UniProt O75365)	phosphatase activity	–	30 min, pH 7.0, 25 °C, together with: DiFMUP 12 µM	> 100000 nM
CC(C)Oc1cc(C(=O)N2CCC(N3CCN(C)CC3)CC2)ccc1Nc1ncc2c(n1)N(C1CCCC1)c1ccccc1C(=O)N2C	Mitogen-activated protein kinase 7 (MAPK7, Homo sapiens, UniProt Q13164)	kinase activity	–	–	160 ± 8 nM
CS(=O)(=O)Oc1cccc(/C=C/c2c[nH]c3ccc(F)cc23)c1	APP amyloid-beta peptide	Aβ42 oligomerisation, ELISA	–	–	17800 nM
CCN(CCc1ccc(Cl)c(Cl)c1)C[C@H](O)COc1ccc(NS(C)(=O)=O)cc1	Glutamate NMDA receptor; Grin1/Grin2b (Grin1/Grin2b, Rattus norvegicus, UniProt P35439+Q00960)	–	–	pH 6.9	21 nM
O=C(CCCCCn1c(=S)[nH]c2ccccc2c1=O)N1CCN(c2ccc(O)cc2)CC1	ESR1	reporter gene, coactivator binding inhibitor, luciferase reporter	HEC-1 cells transfected with ERα	partial inhibition, together with: estradiol 1 nM	10800 nM
C=Cc1cccc(-c2cc(=O)c3c(O)cc(O)c([C@H]4CCN(C)C[C@H]4O)c3o2)c1	Cyclin-dependent kinase 2, part with cyclin A (CDK2, Homo sapiens, UniProt P24941)	enzyme activity, inhibitor	–	with cyclin A, together with: histone H1 substrate	130 nM
COc1ccc(-c2nc(Nc3nc4ccccc4o3)ncc2C#N)cc1F	Metabotropic glutamate receptor 5 (Grm5, Rattus norvegicus, UniProt P31424)	calcium mobilization, negative allosteric modulator	–	together with: glutamate EC80	1060 ± 696 nM
O=C(N1CCN(c2ccc([N+](=O)[O-])c3ncccc23)CC1)C12CC3CC(CC(O)(C3)C1)C2	Toll-like receptor 8 (TLR8, Homo sapiens, UniProt Q9NR97)	reporter gene, inhibitor, SEAP reporter	HEK-Blue TLR8	–	1470 ± 450 nM
CN1C(=S)Cc2ccccc21	Carbonic anhydrase 2 (CA2, Homo sapiens, UniProt P00918)	inhibitor	–	–	20300 ± 2090 nM
CN1CCN(Cc2ccc(NC(=O)c3cncc(C#Cc4c(N)ncc5ccc(F)cc45)c3)cc2C(F)(F)F)CC1	Kinesin-1 heavy chain/ Tyrosine-protein kinase receptor RET (RET/KIF5B, Homo sapiens, UniProt P07949+P33176, G810D)	cell viability, inhibitor, CellTiter-Glo	Ba/F3 KIF5B-RET G810D	–	6.4 ± 0.34 nM
COc1cc2ncnc(Oc3ccc(NC(=O)c4c5n(n(-c6ccc(F)cc6Cl)c4=O)CCCC5)cc3F)c2cc1OC	Tyrosine-protein kinase receptor UFO (AXL, Homo sapiens, UniProt P30530)	inhibitor, ELISA	–	–	13.5 ± 1.8 nM
COC(=O)[C@@H]1C(c2nc3ccccc3s2)=Cc2cc3c(cc2[C@H]1c1cc(OC)c(OC)c(OC)c1)OCO3	Tubulin alpha/beta heterodimer	tubulin polymerization, inhibitor	–	37 °C, together with: tubulin 1.2 mg/mL	> 20000 nM
Clc1ccc(C2(c3ccc(-c4ccncc4)cc3)CCNCC2)cc1	RAC-alpha serine/threonine-protein kinase (AKT1, Homo sapiens, UniProt P31749)	kinase activity, inhibitor, radiometric HotSpot	–	together with: ATP 10 µM	38 nM
N#Cc1cccc(C(=O)N2C[C@H](O)C[C@H]2C(=O)NCc2ccc(-c3cnco3)cc2)c1	von Hippel-Lindau disease tumor suppressor, with elongin B, C (VHL, Homo sapiens, UniProt P40337)	binding, fluorescence polarization	–	10% DMSO, together with: FAM-HIF1α peptide tracer	40300 ± 3900 nM
CC(=O)Nc1cc(Nc2cc(NC3CC3)n3ncc(C#N)c3n2)ccc1N(C)Cc1ccccc1	Casein kinase II subunit alpha (CSNK2A1, Homo sapiens, UniProt P68400)	inhibitor	–	–	91 nM
COc1ccc2nc3ccc(C)cc3c(SCCCN)c2c1	Dual specificity tyrosine-phosphorylation-regulated kinase 2 (DYRK2, Homo sapiens, UniProt Q92630)	inhibitor	–	together with: Woodtide peptide	430 nM
O=C(/C=C/c1ccc(O)c(OC(F)(F)F)c1)C1=C(/C=C/c2ccc(O)c(OC(F)(F)F)c2)OCCC1	Amyloid-beta precursor protein, Aβ aggregates (APP, Homo sapiens, UniProt P05067)	binding, thioflavin T competition	–	–	1230 nM
CC(C)N1CCN(CCNC2CCN(c3cccc(-c4cc5cc(C(F)(F)F)ccc5[nH]4)c3)CC2)CC1	Transitional endoplasmic reticulum ATPase (VCP, Homo sapiens, UniProt P55072)	ATPase activity, inhibitor, ADP-Glo	–	together with: ATP 100 µM	4670 nM
Nc1nccc(-c2ccc(C3(c4ccc(Cl)cc4)CCNCC3)cc2)n1	Serine/threonine-protein kinase LATS1 (LATS1, Homo sapiens, UniProt O95835)	kinase activity, inhibitor, radiometric HotSpot	–	together with: ATP 10 µM	43 nM
CCOc1ccccc1Nc1nnc(SCC(=O)Nc2cc(F)ccc2F)s1	CD28, with CD80 (Homo sapiens, UniProt P10747)	protein interaction, NanoBiT complementation	CHO-K1	2 h	21900 nM
CN1CCc2cc(Nc3ncn(C)c(=O)c3Cl)ccc2C1	Nucleosome-remodeling factor subunit BPTF, bromodomain (BPTF, Homo sapiens, UniProt Q12830)	target engagement, inhibitor, NanoBRET displacement	HEK293T	–	1400 ± 200 nM
O=C(Nc1cccc(F)c1)c1cc(S(=O)(=O)N2CCOCC2)c(Cl)cc1Cl	Autotaxin (ENPP2, Homo sapiens, UniProt Q13822)	enzyme activity, inhibitor	–	4 h, together with: 1 µM FS-3	32 ± 5.8 nM
NS(=O)(=O)c1ccc(Cc2c(C3CCCC3)nn(-c3nc(C(=O)O)cs3)c2-c2ccccc2)cc1	L-lactate dehydrogenase A chain (LDHA, Homo sapiens, UniProt P00338)	enzyme activity, inhibitor	–	–	6700 nM
O=C(OC(C(F)(F)F)C(F)(F)F)N1Cc2ccc(Br)cc2C1	Monoacylglycerol lipase ABHD6 (ABHD6, Homo sapiens, UniProt Q9BV23)	inhibitor, fluorescence	–	–	13.4 nM and 13 nM
CSc1cc(NC(=O)c2ccccn2)ccc1Cl	Metabotropic glutamate receptor 1 (GRM1, Homo sapiens, UniProt Q13255)	antagonist	–	–	> 30000 nM
COc1cc2c(cc1OC)C(=O)C(=Cc1ccccc1OC(=O)N(C)C)C2	Cocaine esterase (CES2, Homo sapiens, UniProt O00748)	inhibitor	–	3 min preincubation, together with: fluorescein diacetate	11.5 ± 2.47 nM
